Results pooled from the literature.
Several values in a cell are separate wells, animals, samples, runs or records. Numbers after ± are the reported error.

`CNS(=O)(=O)Nc1nccc(Cc2c(C)c3ccc(Oc4ncccc4F)cc3oc2=O)c1F` gave an IC50 of 923 nM (MHCC97H; cell viability; 7 days).
Under “M+1 dTMP pool”, `Cc1cc(C)nc(NC(=S)N2CCN(Cc3ccc(C(F)(F)F)cc3)CC2)c1` is recorded as “decreased” (MDA-MB-468; isotope labelling; 10 µM, 24 h, added: U-13C-serine).
For `CO[C@@H]1[C@@H](OC(N)=O)[C@@H](O)[C@H](Oc2ccc3c(O)c(NC(=O)c4ccc(O)c(CC=C(C)C)c4)c(=O)oc3c2C)OC1(C)C`, the colony count was 0.1 (DLD-1 parental; 200 µM, replicate 1).
`c1ccc2c(Cc3c(-c4c[nH]c5ccccc45)[nH]c4ccccc34)c[nH]c2c1`: IL-6 induction “increased” (human monocytes; 5 µM; relative to: DMSO).
For `CC(C)(C)c1cc(-c2ccc3cccnc3n2)nc(-c2ccc3cccnc3n2)c1.COc1ccncc1.[Cl-].[Cl-].[Ru+2].c1ccc2cc3nc4c5cccnc5c5ncccc5c4nc3cc2c1`, the phototherapeutic index was 157 (SK-MEL-28; light 633 nm, oxygen 18.5%; relative to: dark EC50 over light EC50).
`COc1ccccc1-c1ccncc1C(=O)Nc1nnc(OCc2ccc(Cl)cc2)s1` gave a colony survival of 4.84% (PEO1 BRCA2-mutant; 0.5 µM, added: olaparib 0.25 µM).
`Cn1ncc(-c2ccc3c(=O)[nH]nc(CN)c3c2)c1-c1c(F)c(Cl)cc(OC2CC2)c1C#N` has an IC50 of 80 nM (Malme-3M; cell viability, inhibitor, CellTiter-Glo; 120 h, baseline-subtracted).
The LDH release of `CCCC[C@H](NC(C)=O)C(=O)N[C@@H](CCC(=O)O)C(=O)N[C@@H](CO)C(=O)N[C@@H](CC(=O)O)C(=O)COC(=O)c1c(C)cccc1C` is reported as 43.1% and 42.8% and 67.6% (THP-1 cells expressing FKBP-caspase-11; pyroptosis, inhibitor; concentration not given, added: B/B dimerizer).
The cytotoxicity of `Cc1ccc(-n2cc(CSc3nc4ccccc4n3Cc3cn(-c4ccc(C)cc4)nn3)nn2)cc1` is reported as 23% (HEK293; MTT; 15.6 ppm).
`CCC(=CCc1c(O)cc2c(c1O)C(=O)CC(c1ccc(O)cc1)O2)CC` (stereo not drawn) has an inhibition of 2.08% (HeLa; cell growth or viability, MTT; 0.781 µM, 48 h).
The metabolite level of `COC(=O)c1cc(NC2=NC(=O)C(=Cc3ccc(C)cc3)S2)ccc1OC(C)=O` is reported as 0.36 fold change (MCF7; GC-MS, refers to: L-5-Oxoproline; 1 µM; relative to: DMSO).
For `Cc1ncsc1-c1ccc(C(C)NC(=O)C2CC(O)CN2C(=O)C(NC(=O)CCCCCCCCCCN2CCCC(Nc3ncc(Cl)c(Nc4ccccc4S(=O)(=O)C(C)C)n3)C2)C(C)(C)C)cc1` (stereo not drawn), “log2 fold change” read -1.07 (22Rv1; RNA-seq, refers to: PRKAB1 mRNA; concentration not given; relative to: DMSO).
For `O=C(C[Se]C(=O)c1ccc2ccccc2c1)Nc1cccc(C(F)(F)F)c1`, the GI50 was 2860 nM (NCI60 colon subpanel; NCI60 five-dose screen).
`CNC(=O)CCN(Cc1ccc(C(F)F)cc1)C(=O)c1cc2c(OC)ccc(-c3ccc(=O)n(C)c3)c2s1` — result for “log2 fold change”: -2.78 (murine AML cells; BRD4 chromatin occupancy, ChIP-seq, refers to: Irf2bp2 locus; concentration not given; relative to: DMSO).
`O=CCNCCOn1c(=O)n(OCCNCCO)c(=O)n(OCCNCCOn2c(=O)n(OCCNCCO)c(=O)n(OCCNCCO)c2=O)c1=O` has a viability of 40.8% (A549; cell growth or viability, MTT; 50 µg/mL, 24 h).
`CN1CCCNC(=O)c2cccc(c2)C(=O)NCCCN(C)CCCNc2cccc3c2C(=O)c2cccc(c2C3=O)NCCC1` — result for “log2 fold change”: -0.792 (SAS; RNA-Seq, refers to: SH3PXD2A mRNA; 1 µM, 6 h; relative to: untreated cells).
For `COc1cccc(OC)c1-c1cc(C(=O)NC2(C(=O)O)C3CC4CC(C3)CC2C4)nn1-c1ccc(C(=O)NCCNC(=O)[C@H](CCCCNC(=O)[C@H](CC(C)C)NC(=O)C2OC2C(=O)O)NC(=O)CN2CCN(CC(=O)[O-])CCN(CC(=O)[O-])CCN(CC(=O)[O-])CC2)cc1C(C)C.[177Lu+3]` (mixture of isomers), the surface-bound fraction was 1.55 ± 0.22% (HT-29; concentration not given, 240 min; relative to: added activity).
`NC(Cc1ccccc1)C(=O)N1CC(=Cc2ccc(Cl)c(Cl)c2)C(=O)C(=Cc2ccc(Cl)c(Cl)c2)C1` (stereo not drawn) gave an EC50 of 1140 nM (BRD4-HiBiT cells; BRD4 degradation rescue, inhibitor; 2 h, 50% degradation rescued, added: dBET6 500 nM).
With `CCN(CC)CCNC(=S)Nc1ccc2nc(N3CCN(CC)CC3)cc(C)c2c1` the GFP-positive cells was 6.68% (U2OS HDR-GFP reporter; homology-directed repair, flow cytometry; 10 µM).
For `C=CC(=O)N1[C@H](c2ccc3c(c2)OCO3)c2[nH]c3ccccc3c2C[C@@H]1C(=O)NC1CC1`, “mean neuron degeneration” read 18.7% (rat DRG neurons; 3.333 µM, 48 h, added: vincristine 40 nM).
`CCCCCCc1cccc(C(O)CC(CO)NC(=O)CCCCCCCCCCNC(C)=O)c1` (stereo not drawn) gave a lactosylceramide level of 22100 pmol/sample and 12300 pmol/sample and 18100 pmol/sample (HeLa; CERT activity, HPLC-MS/MS lipidomics, refers to: lactosylceramide 16; 1 µM, 24 h, not cell-number normalised).
With `O=C(O)C1OC(Oc2ccc(-c3cc(=O)c4ccccc4o3)cc2)C(O)C(O)C1O` (stereo not drawn) the Jmax was 13.8 ± 1.37 pmol/mg/min (MDCKII-UGT1A1/MRP2 cells; glucuronide efflux, substrate).
`O=C(C[Se]C(=O)c1ccccc1Nc1ccccc1)Nc1cccc(C(F)(F)F)c1` gave a GI50 of 2750 nM (NCI60 colon subpanel; NCI60 five-dose screen).
For `CC(C)c1ccc(N(C)c2ccc3c(c2)OCC[C@H]3CNc2cnccc2C(=O)O)cc1`, the IC50 was no less than 10000 nM (NCI-H596; cell growth or viability, ATP luminescence; 7 days).
With `CCN(C(=O)c1cc(F)ccc1Oc1nncnc1N1CCC2(C1)CN([C@H](CCCN(C)CCOC)C(C)C)C2)C(C)C` the GI50 was greater than 10000 nM (UMUC3; cell growth or viability; 72 h).
Under “cells in S phase”, `C#CCCCC(F)/C=C/C(=O)NC1(c2ccc(-c3nc4ccn5c(=O)[nH]nc5c4cc3-c3ccccc3)cc2)CCC1` (stereo not drawn) is recorded as 23% (MDA-MB-468; flow cytometry, PI staining; EC60 concentration, 72 h, DMSO 22.2).
`CC(=O)NCCCN(C)CCCNc1cccc2c1C(=O)c1cccc(NCCCN(C)CCCNC(C)=O)c1C2=O` — result for “log2 fold change”: -0.426 (SAS; RNA-Seq, refers to: ATP5MC2 mRNA; 1 µM, 24 h; relative to: untreated cells).
Under protein level, `CC[C@H](C)C(=O)O[C@H]1C[C@@H](C)C=C2C=C[C@H](C)[C@H](CC[C@@H]3CC=CC(=O)O3)[C@H]21` is recorded as “no effect” (T84; western blot, refers to: CFTR; concentration not given, 2 h).
With `COC(=O)c1cc(NC2=NC(=O)C(=Cc3ccc(N(C)C)cc3)S2)ccc1OC(C)=O` the metabolite level was 0.21 fold change (MCF7; GC-MS, refers to: Palmitic acid; 1 µM; relative to: DMSO).
For `O=C(C[Se]C(=O)c1cccnc1Nc1cccc(C(F)(F)F)c1)Nc1cccc(C(F)(F)F)c1`, “mean growth percent” read -56.9% (NCI60 colon subpanel; cell growth; 10 µM, 48 h, one-dose).
`Cn1ncc2cc(-c3cncc(Cl)c3N3CCC4(CCNC4=O)CC3)ccc21`: “log2 fold change” 3.01 (LS174T; gene expression, microarray, refers to: JAK3 mRNA; concentration not given, 24 h; relative to: untreated cells).
`O=C(NCc1cc(F)cc(F)c1)[C@@]1(O)CCN(c2ccc3[nH]ccc3c2)C1=O` gave a maximal inhibition of 86% (Ovarian PDX-derived tumour cells; colony formation, soft agar clonogenic; concentration not given, 8-10 days).
`CC[C@H]1CN([C@@H](CC)c2ccc(C(F)(F)F)cc2)[C@H](CC)CN1c1nc(=O)n(C)c2ccc(C#N)nc12` has an EC50 of 1 nM (SAOS-2; T cell tumour killing; 72 h, added: T cells, NY-ESO-1 TCR, effector:target 1:2).
With `O=C(C[Se]C(=O)C12CC3CC(CC(C3)C1)C2)Nc1cccc(C(F)(F)F)c1` the mean TGI was 26800 nM (NCI60 colon subpanel; NCI60 five-dose screen).
With `COc1ncccc1CN(C(=O)OCc1ccc([N+](=O)[O-])cc1F)[C@H]1C[C@@H]1c1ccccc1` (racemic) the GI50 was 6000 ± 700 nM (THP-1 cells expressing NTR; MTS; 72 h).
The IC50 of `CCOc1cncc(-c2ccc(NC(=O)C3(c4ccnc(NS(=O)(=O)C5CC5)n4)CCOCC3)nc2)n1` is reported as 85 nM (Raji; cell growth or viability, ATP luminescence; 72 h).
For `O=C(O)C1OC(Oc2c(-c3ccccc3)oc3ccccc3c2=O)C(O)C(O)C1O` (stereo not drawn), the Jmax was 11 ± 0.76 pmol/mg/min (MDCKII-UGT1A1/MRP2 cells; glucuronide efflux, substrate).
For `CSC(=S)N/N=C(\C)c1ccc(Nc2nnc(-c3ccc(Cl)cc3)c3ccccc23)cc1`, the cell death was 76.1% (MCF7; cell growth or viability, MTT; 0.312 µM).
With `CCN(CC)CC(=O)Nc1cccc(-n2cc(-c3ccc4ccc(-c5cn(-c6cccc(NC(=O)CN(CC)CC)c6)nn5)cc4c3)nn2)c1` the fold regulation was 1.62 (RCC4; PCR angiogenesis array, refers to: CDH5; 5 x IC50, 6 h, normoxia; relative to: untreated).

Some of these lines once more:
`CN1CCCNC(=O)c2cccc(c2)C(=O)NCCCN(C)CCCNc2cccc3c2C(=O)c2cccc(c2C3=O)NCCC1` — result for “log2 fold change”: -0.792 (SAS; RNA-Seq, refers to: SH3PXD2A mRNA; 1 µM, 6 h; relative to: untreated cells).
With `COc1ncccc1CN(C(=O)OCc1ccc([N+](=O)[O-])cc1F)[C@H]1C[C@@H]1c1ccccc1` (racemic) the GI50 was 6000 ± 700 nM (THP-1 cells expressing NTR; MTS; 72 h).
